# Measurements of several laboratories.
# A part holds a random share of what one study measured.

# Set 1
# Target: Histone acetyltransferase KAT6A, winged helix 1, GST fusion (KAT6A, Homo sapiens, UniProt Q92794, residues 1-85)
# Method: protein binding microarray
# Form: double-stranded DNA, one strand shown
# Matrix: in vitro
# Concentration: not given
# Notes: 8-mer, flanks averaged, mean of 2 arrays, mostly near background
# Relative to: not given
# Direction: higher = stronger binding
# Target sequence (chain): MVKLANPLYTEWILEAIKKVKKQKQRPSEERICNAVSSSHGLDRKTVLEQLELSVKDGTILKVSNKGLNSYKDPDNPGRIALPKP
Oligonucleotide,E-score
ATGTCAAC,-0.19
CAATAGTC,-0.227
ATTACAGG,0.064
CGGTACAC,0.192
ACTCATAC,-0.185

# Set 2
# Target: Interferon regulatory factor 7, full length, phosphomimetic (IRF7, Homo sapiens, UniProt Q92985, residues 1-503, S101K/S471D/S472D/S475D/S476D/S477D/S483D/S484D/S487D)
# Method: protein-binding microarray
# Form: double-stranded DNA, one strand shown
# Matrix: in vitro
# Concentration: 250 nM
# Notes: 60-bp whole probe
# Together with: salmon DNA 0.4 mg/ml
# Relative to: random background probes
# Direction: higher = stronger binding
# All sequences stand within: GCCTAGCAC … GTCTTGATTCGCTTGACGCTGCTG
# Construct (chain): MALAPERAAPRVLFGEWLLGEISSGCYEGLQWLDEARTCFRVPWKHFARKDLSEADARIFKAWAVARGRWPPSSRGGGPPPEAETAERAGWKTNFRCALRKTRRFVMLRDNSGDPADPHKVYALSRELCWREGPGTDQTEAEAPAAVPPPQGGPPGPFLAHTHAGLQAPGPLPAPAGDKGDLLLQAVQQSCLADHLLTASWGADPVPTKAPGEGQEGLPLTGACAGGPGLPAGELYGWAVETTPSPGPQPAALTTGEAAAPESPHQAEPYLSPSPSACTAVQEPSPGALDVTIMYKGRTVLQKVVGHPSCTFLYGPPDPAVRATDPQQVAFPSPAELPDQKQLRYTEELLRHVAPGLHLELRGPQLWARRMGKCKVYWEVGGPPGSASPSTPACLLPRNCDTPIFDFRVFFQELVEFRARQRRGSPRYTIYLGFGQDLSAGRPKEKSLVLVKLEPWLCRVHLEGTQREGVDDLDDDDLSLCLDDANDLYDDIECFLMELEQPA
Oligonucleotide,log fluorescence
TTCGGTTTCGGACTGGGTTAGTGCTAG,4.82 z-score
TCACTCCTCTCTCTTTCACTGTGCTAG,0.358 z-score
TGTCTTCCCCATCTTGTTCCGTGCTAG,2.28 z-score
TTAGGTATCGACACTGGGTTCGTGCTA,-0.0232 z-score
GACGATTTCGGTTCCGGGACGTGCTAG,2.89 z-score
TCATTATTTTTTTTATTACTGTGCTAG,1.07 z-score
GACGATCTCTGTCTCGAGACGTGCTAG,0.0595 z-score

# Set 3
# Target: TAR DNA-binding protein 43, full length, His tag (TARDBP, Homo sapiens, UniProt Q13148, residues 1-414)
# Method: RNA Bind-n-Seq
# Form: RNA
# Matrix: in vitro
# Concentration: 20 nM
# Notes: 6-mer, flanks averaged, single round
# Together with: 150 mM LiCl
# Relative to: input library
# Direction: higher = stronger binding
Oligonucleotide,6-mer enrichment (R)
GGCGUA,1.01
GGUGUG,2.24
CGGAGU,1
UCCUCA,0.889

# Single results of other studies
Molecule,target,assay,system,setting,scale,quantity,result
"PhoQ, residues 284 288 289 292 302 303 TGYLSA","PhoP, residues 12 14 15 18 19 HEGLL (Escherichia coli, UniProt P23836)","Sort-seq, measured: YFP reporter",E. coli,"PhoQ-PhoP variant library, together with: 10 µM Mg2+","relative to: high Mg2+ state, higher = stronger signaling",fold induction,6.65

# Some of these lines once more (set 3):
Oligonucleotide,6-mer enrichment (R)
GGUGUG,2.24
CGGAGU,1
